Measured values collected from several papers.
Every numbered part comes from another study and shows a few of its results, in no order.

Study 1 — method: RNA Bind-n-Seq; molecule type: RNA; medium: in vitro; concentration: not given; relative to: input RNA pool; direction: higher = stronger binding
Target: RING finger protein unkempt homolog, zinc fingers 1-6, GST-SBP tag (UNK, Homo sapiens, UniProt Q9C0B0, residues 30-357)
Sequence of UniProt Q9C0B0 (30-357, looked up): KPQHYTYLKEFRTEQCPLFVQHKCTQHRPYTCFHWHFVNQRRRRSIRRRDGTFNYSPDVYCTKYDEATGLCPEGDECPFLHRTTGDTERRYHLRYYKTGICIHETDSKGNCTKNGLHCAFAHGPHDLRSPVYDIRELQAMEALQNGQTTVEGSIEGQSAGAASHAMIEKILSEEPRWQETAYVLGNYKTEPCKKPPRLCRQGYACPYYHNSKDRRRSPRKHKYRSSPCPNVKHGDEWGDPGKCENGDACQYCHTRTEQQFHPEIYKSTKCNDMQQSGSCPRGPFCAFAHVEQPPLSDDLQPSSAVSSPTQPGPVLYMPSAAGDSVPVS
Notes: RNA with constant flanks, human and mouse sites, ends assumed
| Oligonucleotide | bound/input enrichment [ratio] |
| --- | --- |
| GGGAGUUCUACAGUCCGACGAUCGCAAGACGGUGUAGUGUGACGUCCAUGGAGUCCACAGUGUCCUCGGGGACCCAGACAACUGUUCAGGAUGACCCUGAGCAAUUUGAGGUCAUCAAGCAACAAAAAGAAAUCAUUGAACACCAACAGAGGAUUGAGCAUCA | 0.108 |
| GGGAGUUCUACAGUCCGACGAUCCGGUCUCUUCCAUCUCCUUCCUCUGCUCACUUGGCUGCUUUAAGUGUUGCAGUUGUUGAGUUAGCAAAAGAACAAGGAAUAACAGAUGAUGACCUCAGAAUCCGCCAGGACAUUGUGGAGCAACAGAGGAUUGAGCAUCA | 0.108 |
| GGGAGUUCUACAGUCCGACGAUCUAGACCAAAAAUUCUGAUGACCACAUCUAGAUUAUUUUUCUAUAAAAAAAUGAUUUUCACUAUAGCGAUGUCAGUCACCACUAAGCUACUGUCCAAUUCCAUGUGAUGUGUAACUUUUACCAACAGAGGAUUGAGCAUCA | 1.71 |
| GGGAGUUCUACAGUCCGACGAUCGAAAUCCAUAUUUAUUUUGUAAUUAACUGUCAAGCCUGUGGAUGAUUUUUUUGAACUUGGUAGUUCAUAAAGGUUUACAGUGAAUAAAAGGAUAUCAUCUUGAGUAUAGCAAUAUCAAAACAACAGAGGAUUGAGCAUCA | 0.673 |
| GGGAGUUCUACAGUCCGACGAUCGUGACUCUUGUAUGUAAUCCUGUGGCUUAACUACUUCUCCCUCCUUGUCCAGCACUUUUCUAGCUCUCCCGUUCCCCAUCUCCAUUGCUCUGUACUCUUUUCUUUUUUCUUGUGCUGAGACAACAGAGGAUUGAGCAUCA | 1.01 |
| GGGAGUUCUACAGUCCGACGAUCGUUAUGGGUGUGAGAGGUUUGCAAGGAUUUGUGGGAAGUACCUGCCCACAUAUAUGUACAGUAGUAAAUUUCAAAGAACUGGCAGAGCACCACCGAAGCAAGUAUCCUGGAUGUACCCCUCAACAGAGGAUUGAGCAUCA | 0.619 |
| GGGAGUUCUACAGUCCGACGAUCGAUUCCAUUCGGACAUUAUUAGAUAAUGGAGCUUCAGUAAAUCAGUGUGAUUCAAAUGGGAGAACAUUAUUGGCUAAUGCUGCAUAUAGUGGCAGUCUUGAUGUAGUCAAUUUACUUGUCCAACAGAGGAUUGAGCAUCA | 0.22 |
| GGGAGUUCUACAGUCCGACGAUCAUUAAUUGGACAGAACAGAACUACCCUCAAGGGGGGAAAGAGAGUAACAUGUCAGCGUUAGUGGAGAGAGCGAUAGAAGCACUCCAAGGAGAGACGCGCUAUUAUAAUGACCCCCGCUUUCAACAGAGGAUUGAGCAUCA | 0.191 |

Study 2 — method: RNA Bind-n-Seq; molecule type: RNA; medium: in vitro; concentration: 365 nM; relative to: no-protein control; direction: higher = stronger binding
Target: RNA binding protein fox-1 homolog 2, RRM domain, GST-SBP tag (RBFOX2, Homo sapiens, UniProt O43251-10, residues 100-194)
Notes: natural RNA segment, single round, ends assumed
Construct (chain): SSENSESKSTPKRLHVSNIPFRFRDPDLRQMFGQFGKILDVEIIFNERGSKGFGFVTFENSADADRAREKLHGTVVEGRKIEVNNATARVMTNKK
| Oligonucleotide | RBNS enrichment (R) |
| --- | --- |
| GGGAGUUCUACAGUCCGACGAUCGCACCGCCCACCCACACCCCGUCUGCCCCUUGACCCCACACGCCGGGGCUGGCCCUGCCCUCCCCCACGGCCGUCCCUGACUUCCCAGCUGGCAGCGCCUCCCGCCGCCUUGGAAUUCUCGGGUGCCAA | 0.731 |
| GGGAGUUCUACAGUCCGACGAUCAGCGCCAGUACUAGAGCCUGCUUAUCCACAUUUGCCCUGGACAGGAGCAGGAGGAAGUCCACUUCUGUACCGGCAGACAGAGCAUGUGAACACAAAACACAUUUCUAUGGUGGAAUUCUCGGGUGCCAA | 0.288 |
| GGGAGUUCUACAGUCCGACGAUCCCGCUGGGUCUGUGAGACAAAGUUGGAUAAGGCUAAUAGGAACCUUCCUUCCCCUCAUUUAUAUCCUUAAUUCCUUGAGCUGCUGAGGUUUAGAACUGGUAGAGCCUACCUGGAAUUCUCGGGUGCCAA | 0.371 |
| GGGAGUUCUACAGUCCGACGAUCCAUCUGCCACAUUGAUGAUUAAAUUAGCAGUUUAGAUAACUUGAGUCCCUUUCCCUUUAUAUUUGAGAUGAGGUCUAGAUAUGUAGUCCUGCCUGGCCUCCAAUUUGUAAUGGAAUUCUCGGGUGCCAA | 0.508 |
| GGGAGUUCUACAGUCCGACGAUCCCUCACUUACUUCUUAUGAAGUUGGCAUUACCUGAGACUCUUAGCUGUGAUUAGGUACAAGCUUACCUUUUAGGGUAGAAAAAGAAAGAUCAUUUGAAAAAUGUAUCUAAUGGAAUUCUCGGGUGCCAA | 0.364 |
| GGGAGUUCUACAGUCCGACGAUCCCAAGUAACUUGGCUGUGAAAUGGCAGAAGGAACCUUCUCUCAAGCAGGUAGGUCAAGAGAUGGGCCAUAUAUAUACUGAUAUACUGGUUGACCUGCCAUCACCGCUCACUGGAAUUCUCGGGUGCCAA | 1.51 |
| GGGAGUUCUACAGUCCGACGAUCGUGAACAGAGCGAGACGCAGUUAUGUGUGCACCGGCAGAUACUGACACUGAUGGCUGACAGUGUGUGCGUCCUUCACGCCGGUGUGCAACGUACGCAGUGUUUACUCAGUUGGAAUUCUCGGGUGCCAA | 1.12 |
| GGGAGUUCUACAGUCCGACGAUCGAAGAAGGAAAGGCGGUGAGAGCCAGAGCGGUGAUGCCAGAGUGGUGGCCCCUGUGGGGUGUCCUGUCACAGCCAUGUCUAUGGAAUCGCAGAGGCGGUGGGAAGGCUGUUGGAAUUCUCGGGUGCCAA | 0.993 |

Study 3 — method: RNA Bind-n-Seq; molecule type: RNA; medium: in vitro; concentration: 1 µM; notes: whole 134-nt RNA, ends assumed; with: 150 mM KCl; relative to: input library; direction: higher = stronger binding
Target: Ras GTPase-activating protein-binding protein 1, C-terminal RGG region (G3BP1, Homo sapiens, UniProt Q13283)
Sequence of UniProt Q13283 (whole entry, looked up): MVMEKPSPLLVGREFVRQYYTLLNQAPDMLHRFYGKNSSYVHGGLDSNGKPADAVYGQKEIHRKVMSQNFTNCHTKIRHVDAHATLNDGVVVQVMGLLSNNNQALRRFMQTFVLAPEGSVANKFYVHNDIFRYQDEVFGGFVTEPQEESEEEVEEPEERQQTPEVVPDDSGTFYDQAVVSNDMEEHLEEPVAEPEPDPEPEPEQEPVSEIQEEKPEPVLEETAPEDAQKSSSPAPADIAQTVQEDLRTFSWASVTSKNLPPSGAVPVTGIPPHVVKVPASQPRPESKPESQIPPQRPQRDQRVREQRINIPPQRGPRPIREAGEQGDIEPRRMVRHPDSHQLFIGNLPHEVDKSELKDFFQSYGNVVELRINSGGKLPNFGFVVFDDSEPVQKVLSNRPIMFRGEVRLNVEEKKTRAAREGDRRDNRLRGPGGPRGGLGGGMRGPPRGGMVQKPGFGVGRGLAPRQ
| Oligonucleotide | log2 enrichment |
| --- | --- |
| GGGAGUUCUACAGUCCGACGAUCGCAGGAAGUAAAAACAAAUGGAAAUGCUUCGGAUAGUGGCAGGGGUGGGGGUUGCUAAGGAAAGGGUGGGAUGGGAGUGGGUAAAGAGAUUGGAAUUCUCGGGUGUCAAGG | 1.23 |
| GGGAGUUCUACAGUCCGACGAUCUCAAGUCCUGUGCUACACAUCGUAUGUACCGAAUCGGGCCCGGGCCCGGCCCGGAAAGUAUUAUGUUACGCCGUUCGGAUCUGCACUUCCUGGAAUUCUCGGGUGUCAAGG | -1.42 |
| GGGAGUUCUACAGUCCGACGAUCGCAGAAAGUAAAAACAAAUGGAAAUGCUUCGGAUAGUGGCAGGGGUGGGGGUUGCUAAGGAAAGGGUGGGAUGGGAGUGGGUAAAGAGUUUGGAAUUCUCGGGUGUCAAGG | 1.56 |
| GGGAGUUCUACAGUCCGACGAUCUAACUUUAGAAGAGGAUCUGAUGGAUAUGGCAGUGGACGUGGAUUUGGGGAUGGCUAUAAUGGGUAUGGAGGAGGACCUGGAGGUGGCAAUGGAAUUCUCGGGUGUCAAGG | -1.47 |
| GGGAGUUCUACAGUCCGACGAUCUUACUAGAAAAGGCAGAAGCCCGUGAACGUGAAAGAGAAAAAGAAGAGGCUCGGAAGAUGAAACGAAAAGAAUCUGCAUUUAAGAGUAUGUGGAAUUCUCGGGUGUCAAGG | -2.29 |
| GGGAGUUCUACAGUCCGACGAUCCUGUGCUACACAUCGUAUGUACCGAAUCGGGUUUUUUUGGGUUUUUUUGGGUUUUUUUGGGAAAGUAUUAUGUUACGCCGUUCGGAUCUGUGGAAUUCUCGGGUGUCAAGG | -1.2 |
| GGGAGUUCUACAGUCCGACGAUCAAGUCCUGUGCUACACAUCGUAUGUACCGAAUCGGGGCCCCGGGCCCCGGGCCCCGGAAAGUAUUAUGUUACGCCGUUCGGAUCUGCACUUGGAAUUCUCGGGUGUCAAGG | -1.74 |
| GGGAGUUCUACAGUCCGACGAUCGCAGGAAGUAAAAACAAAUGGAAAGGCUUCGGAUAGUGGCAGGGGUGGGGGUUGCUAAGGAAAGGGUGGGAUGGGAGUGGGUAAAGAGUUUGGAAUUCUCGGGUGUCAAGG | 1.59 |
| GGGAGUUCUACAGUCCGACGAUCCCUCAAGUCCUGUGCUACACAUCGUAUGUACCGAAUCGGUUGGGUUGGUUGGAAAGUAUUAUGUUACGCCGUUCGGAUCUGCACUUCCAGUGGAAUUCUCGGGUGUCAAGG | -0.371 |

Study 4 — method: protein binding microarray; molecule type: double-stranded DNA, one strand shown; medium: in vitro; concentration: not given; relative to: not given; direction: higher = stronger binding
Target: Histone acetyltransferase KAT6A, winged helix 2, GST fusion (KAT6A, Homo sapiens, UniProt Q92794, residues 85-181)
Notes: 8-mer, flanks averaged, mean of 2 arrays, mostly near background
Target sequence (chain): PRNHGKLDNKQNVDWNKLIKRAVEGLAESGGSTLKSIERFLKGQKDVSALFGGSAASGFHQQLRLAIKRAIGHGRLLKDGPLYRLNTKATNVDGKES
| Oligonucleotide | E-score |
| --- | --- |
| ATGTTAAT | -0.00317 |
| CTTATCGC | -0.0691 |
| AGAGGGTA | -0.127 |
| ATACGCAG | 0.0433 |
| TATATACA | -0.109 |
| AAAAGACG | 0.0976 |
| ATGTCGTC | -0.0668 |
| GCCTGACA | -0.0947 |
| GCCTTGTA | 0.0154 |
| TAATGGCA | -0.0239 |
| ATACATAA | -0.025 |
| GAGAAGCA | 0.0741 |
| AAGAATAG | 0.0557 |
| CCGCTGTC | 0.15 |
| ATGCCAAG | -0.057 |
| ACCTTCAC | -0.149 |
| ACTGCGCA | 0.118 |
| AGACCGGA | 0.00675 |
| ATCTAGGC | -0.115 |
| CTGCTATA | 0.128 |
| CAGGGTTA | -0.069 |
| AGTACACA | -0.0495 |
| AGCCTTTC | 0.0974 |
| ATCTACCA | -0.0492 |
| ACACGCTC | -0.0542 |

Some of these lines once more (study 4):
| Oligonucleotide | E-score |
| --- | --- |
| GCCTTGTA | 0.0154 |
| TAATGGCA | -0.0239 |
| ATACATAA | -0.025 |
| GAGAAGCA | 0.0741 |
| AAGAATAG | 0.0557 |
